Published values from different studies.
Each line is one published result; not all experiments were run side by side.
Target: Histone deacetylase 2 (HDAC2, Homo sapiens, UniProt Q92769)
UniProt Q92769, sequence (whole entry, looked up): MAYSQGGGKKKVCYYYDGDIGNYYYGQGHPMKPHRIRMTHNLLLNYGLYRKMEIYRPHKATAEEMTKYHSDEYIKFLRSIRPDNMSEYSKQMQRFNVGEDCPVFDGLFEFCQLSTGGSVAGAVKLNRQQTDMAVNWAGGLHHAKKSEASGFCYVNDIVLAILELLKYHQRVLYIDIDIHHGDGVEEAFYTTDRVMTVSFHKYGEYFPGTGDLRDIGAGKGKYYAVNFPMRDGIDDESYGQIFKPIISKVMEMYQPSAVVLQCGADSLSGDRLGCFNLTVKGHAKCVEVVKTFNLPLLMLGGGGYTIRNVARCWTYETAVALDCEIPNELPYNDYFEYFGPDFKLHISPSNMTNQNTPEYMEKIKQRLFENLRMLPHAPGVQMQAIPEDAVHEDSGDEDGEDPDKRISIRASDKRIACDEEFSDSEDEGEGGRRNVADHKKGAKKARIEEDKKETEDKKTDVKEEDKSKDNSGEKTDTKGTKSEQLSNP
Mode: inhibitor

Structure (SMILES)	test	system	conditions	measurement	value
Cc1nc2c(F)cc(-c3nc(Nc4ccc(CNC(=O)CCCCCCC(=O)NO)cc4)ncc3F)cc2n1C(C)C	enzyme activity			IC50	520 nM
Cc1c(COc2cc(OCc3cccc(C#N)c3)c(CNC(C)(CO)CO)cc2Cl)cccc1-c1cccc(OCCCCCC(=O)NO)c1	enzyme activity			IC50	101 nM
O=C(NO)c1cnc(NC2(c3cccc(F)c3)CCCCC2)nc1	competition pulldown	SW620 and MV4-11 lysate	1 h	Kd	> 30200 nM
Cc1c(COc2cc(OCc3cccc(C#N)c3)c(CN3CCCC[C@H]3C(=O)O)cc2Cl)cccc1-c1cccc(OCCCCCC(=O)NO)c1	enzyme activity			IC50	35 nM
O=C(/C=C/c1cccc(OS(=O)(=O)Oc2ccc(Br)cc2)c1)NO	enzyme activity, fluorescence			IC50	201 nM
O=C(CCc1ccc(CNC(C(=O)OC2CCCC2)C2CCCCC2)cn1)NO (stereo not shown)	enzyme activity			IC50	1380 nM
Cc1c(COc2cc(OCc3cccc(C#N)c3)c(CN3CCCC[C@@H]3C(=O)O)cc2Cl)cccc1-c1cccc(OCCCCCCC(=O)NO)c1	enzyme activity			IC50	28 nM
CC[C@H](C)[C@@H]1NC(=O)[C@H](Cc2ccccc2C(F)(F)F)NC(=O)CCSCc2cccc(n2)CSCCCNC(=O)[C@H](CCCCCC(=O)NO)NC1=O	enzyme activity, fluorescence			Ki	4 nM
COc1ccc(C(=O)NO)cc1NC(=O)c1ccc(-c2ccccc2)cc1	competition pulldown	SW620 and MV4-11 lysate	1 h	Kd	> 30200 nM
C[S@@](=N)(=O)c1ccc(C(=O)Nc2cc(-c3ccc(F)cc3)ccc2N)cc1	enzyme activity, fluorescence			IC50	30 nM

For quick reference, copied from above:
Structure (SMILES)	test	system	conditions	measurement	value
O=C(/C=C/c1cccc(OS(=O)(=O)Oc2ccc(Br)cc2)c1)NO	enzyme activity, fluorescence			IC50	201 nM
